Measured values pooled from the literature.
A part holds a random share of what one study measured.

Block 1
Target: Protein max, full length (MAX, Homo sapiens, UniProt P61244-2, residues 1-151)
Method: protein-binding microarray
Molecule type: double-stranded DNA, one strand shown
Medium: in vitro
Tested at: not given
Notes: k-mer, scored over probes, only values ≥0.25
Reading: higher = stronger binding
Quantity: E-score
ACATGCGG: 0.454
CAAGCATG: 0.421
GCCACGCC: 0.371
AGTCACAC: 0.333
ATGAGGCA: 0.283
CCCTCCCC: 0.278
ACACGTGA: 0.496
CGTGCAGC: 0.391
ACTTGCAC: 0.259
AAACGCGT: 0.259
CCAGGTGA: 0.27
ACGTGATA: 0.464
AACACGAG: 0.443
ATCATGTG: 0.464
CGTGAACC: 0.255
AGCACAAG: 0.279
GTGTCAGA: 0.287
ACCACACG: 0.346
GTGGCAAA: 0.266
ACGCTGGC: 0.297
ACGCTGCT: 0.284
GCATGATA: 0.349
CATGAATA: 0.267
CGTCCACG: 0.351
CGTGGTAC: 0.372

Block 2
Target: Histone acetyltransferase KAT6A, winged helix 2, GST fusion (KAT6A, Homo sapiens, UniProt Q92794, residues 85-181)
Method: protein binding microarray
Molecule type: double-stranded DNA, one strand shown
Medium: in vitro
Tested at: not given
Notes: 8-mer, flanks averaged, mean of 2 arrays, mostly near background
Baseline: not given
Reading: higher = stronger binding
Quantity: E-score
Construct (chain): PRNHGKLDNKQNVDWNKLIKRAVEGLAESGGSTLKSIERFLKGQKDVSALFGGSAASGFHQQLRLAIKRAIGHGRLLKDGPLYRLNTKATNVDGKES
GCCACGGA: -0.0114
GGGTAGAC: -0.162
AGGTTCGC: -0.0424
AGGTAAGC: -0.0857
ACCGGGCG: 0.136
AGACTGGC: -0.151
AGAGTCAA: -0.171
CGCAGAAA: 0.136
TCGGCAAA: 0.0186
GAACGAAC: 0.00635
CCCTTTGA: -0.146
CCGATTCC: 0.0183
AAAAATGG: 0.0299
ACTGTACT: -0.283
CTGTGTCC: 0.0989
CCCCATCC: 0.139
ATCGTGCA: 0.05
CGCGATAG: 0.0823
GATACGTA: -0.174
ACCAAGCA: -0.0329
CAACAGTA: -0.0285
CATTTTCC: -0.0162

Block 3
Target: RNA binding protein fox-1 homolog 2, RRM domain, GST-SBP tag (RBFOX2, Homo sapiens, UniProt O43251-10, residues 100-194)
Method: RNA Bind-n-Seq
Molecule type: RNA
Medium: in vitro
Tested at: 365 nM
Notes: natural RNA segment, single round, ends assumed
Baseline: no-protein control
Reading: higher = stronger binding
Quantity: RBNS enrichment (R)
Constant ends, left off below: GGGAGUUCUACAGUCCGACGAUC … UGGAAUUCUCGGGUGCCAA
Target sequence (chain): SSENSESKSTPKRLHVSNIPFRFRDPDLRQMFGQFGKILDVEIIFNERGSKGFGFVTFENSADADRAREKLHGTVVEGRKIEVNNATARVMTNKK
GAUCCCGGGAGCCUUGCCGCACUGCCUUGUGGGUGGCUUGGCGCUCGUGAUUGCUUCCUGUGAACGCCUCCCAAGGACGAGCCCAGUGUAGUUGUGUGGCGUGAACUCUG: 1.41
AGGAGAUCUGGGGGAAGAUAUUGCCAGUAAUUAAACAUGAAUGAAGAUAGGUUGUAAACUGAAUGCUGUGAUAAUACUCUGUAUUCUUUAUGGAAAAUGUUGUCCUGUAC: 3.03
GUAAUUCUGUCCUGCGGGGUUCAGCAUCAUGCACGUUCCCCCUGGGCCAUUCUCUGAUGCAGGGCACUUGCUCCACACUCUGGGAACCCAGAUUCACCAGUCUGCCCUGU: 0.209
GGGGCAUGAUGGCAGUGUUUCUCUUUUAGGACAACACCCACGGAACACUCAAAGGCUGUGUGACUUGUCCUGUCCUGUGGCACCGAAGCCCUAGGUAGCUGGCUGUUUUG: 0.735
GCUAAAAAUCCUGUGAAUACAAUACUAUCCUUUACAGGCAGACAUUAUUGGUAAACAAGAUCUUGCCCUCCAAUGAAAUGACUUACAUGUUUUAAAAAACCGAGUUGGUU: 0.553
CCUGCUGAGGGACCCUUCAACUGGCCAGAGCCUGGAUCAAUUUCAUGUUGAUCAGUCAGAGGAACUGAGAAAGCCACUAGAUCCAAGCUUAGUCCCAAGAAGAGGGUGAA: 0.807
AGUGAACACAGGCUGCGAUGCUCUGGACAUGUGUGCAUGAGCACGCCGUGGACUCUCGUGCAGGACUUGGGACUCGUGCUGAAGCCUUGGGGUCAAGGAACAUUUCAGUG: 0.805
CAUCUAAGGUGGGGGCCAUGGCCGUGAAUGUGGAUGACACUUGUUCUCCUGACCCGUGGUGUUGCAGUCUGUUGUCACCAGCCUUGUUUUAGUGUGUAUAUAUGUCGCCC: 2.44
GAAAAUUAAAACUAUGGAAAAUUUGUCUAGCAUAUCAGAAGUUGUAAAUGCUAUAUCUGGUAUCCAGAGGCUGGCUGUAAAAAGUUCCUUGGGGUCACUCUAUCUCACAU: 0.639
CGAGAGAUAGAAAAUCUUUAUCUGUCCUUCUUGCUCCCUGACAUUAAUAAAUUUUUCUGAAGUCUCAAAGUCUUCUCAACAGUCAAGAAACCAAGCAAGCAAGCAAGAGC: 0.754
AAUGGAUGGUGGAAGGGUGGCGAAUGUUCAAAUUCAUAUGUGUGGUAGUGAUUCUUGGAAAGAAUUUGAGGUCCCCAAAGGUGUAUUUUUGGGCAAAUGAAACCAUAAAC: 1.43
UCAGUUACAUACAAUUUGUUUAAUGAAAUGUCAUGGCUCUGUUCAUAUUUUUGUCUUGUUCUUCCAAUUGGUAUAUACAACUUUCAGAGCCUCUUGUAUUUGGAAGGCUG: 0.543

Block 4
Target: Interferon regulatory factor 7, full length, phosphomimetic (IRF7, Homo sapiens, UniProt Q92985, residues 1-503, S471D/S472D/S475D/S476D/S477D/S483D/S484D/S487D)
Sequence of UniProt Q92985 (whole entry, unmodified, looked up): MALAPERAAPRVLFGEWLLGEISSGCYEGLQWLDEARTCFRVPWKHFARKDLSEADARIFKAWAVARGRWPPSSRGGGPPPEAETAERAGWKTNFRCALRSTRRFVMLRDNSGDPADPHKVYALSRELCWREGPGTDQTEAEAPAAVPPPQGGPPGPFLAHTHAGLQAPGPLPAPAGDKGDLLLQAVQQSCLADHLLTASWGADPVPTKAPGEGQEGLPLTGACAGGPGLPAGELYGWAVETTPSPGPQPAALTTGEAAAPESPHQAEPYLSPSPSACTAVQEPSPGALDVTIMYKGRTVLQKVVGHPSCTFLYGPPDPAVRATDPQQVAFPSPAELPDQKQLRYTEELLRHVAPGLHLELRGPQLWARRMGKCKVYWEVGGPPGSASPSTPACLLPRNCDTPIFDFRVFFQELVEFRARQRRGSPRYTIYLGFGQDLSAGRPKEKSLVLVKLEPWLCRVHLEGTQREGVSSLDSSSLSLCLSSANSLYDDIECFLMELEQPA
Method: protein-binding microarray
Molecule type: double-stranded DNA, one strand shown
Medium: in vitro
Tested at: 2200 nM top
Notes: 60-bp whole probe
With: salmon DNA 0.4 mg/ml
Baseline: random background probes
Reading: higher = stronger binding
Quantity: fitted relative affinity
Constant ends, left off below: GCCTAGCAC … GTCTTGATTCGCTTGACGCTGCTG
TTAGGTTCCGGTTTCCGTTAGTGCTAG: 5.35 z-score
AGTTCTCTAGAAATTCCCACGGTGCTA: 0.488 z-score
TTAGGTACCGACTTTCGGTTAGTGCTA: 5.81 z-score
TTAGATTCCAGTTTCGATCAGTGCTAG: 4.38 z-score
CACGGTATCGGGTATCGGGACGTGCTA: -0.0103 z-score
TTAGAACTGAGACTGGAATAGTGCTAG: -0.849 z-score
TCAATTTTTACCCTCCTACTGTGCTAG: 1.9 z-score
GAAGGTATCCTACTGCTGACGTGCTAG: 0.105 z-score
GACGAACTGGGGTATCGATACGTGCTA: 0.292 z-score
GACGATCTCGGTCTCGGGACGTGCTAG: 0.147 z-score
GACGGTCTCCTTCTCCTCACGTGCTAG: 1.03 z-score
GACGGTATCATTCTCCTGACGTGCTAG: 0.957 z-score
TCCATCATTGCTTTCTCTTTGTGCTAG: 5.14 z-score
TTAGGCCTCGGTTTCGGTTAGTGCTAG: 5.96 z-score
TCATCTCTGCTTGTGTCACTGTGCTAG: 1.67 z-score
TTAGGTCTCGGACTGGGTTAGTGCTAG: -0.227 z-score
GACGGTTTCGTTCTCCTGACGTGCTAG: 7.86 z-score
TCAACTTTGCTCTGTGCGACTGTGCTA: 0.545 z-score
TTAGGTCTCGGACTGGTTTAGTGCTAG: 0.00816 z-score
TCAGGACTGCTTCTCCTTTAGTGCTAG: 0.981 z-score
TTAGGACTGGACTATCGGTTAGTGCTA: -0.28 z-score
GACGATATAAGACTGGAGACGTGCTAG: -0.318 z-score

Block 5
Target: Centromere-binding protein 1, full length, N-terminal tag (CBF1, Saccharomyces cerevisiae, UniProt P17106, residues 1-351)
Sequence of UniProt P17106 (whole entry, looked up): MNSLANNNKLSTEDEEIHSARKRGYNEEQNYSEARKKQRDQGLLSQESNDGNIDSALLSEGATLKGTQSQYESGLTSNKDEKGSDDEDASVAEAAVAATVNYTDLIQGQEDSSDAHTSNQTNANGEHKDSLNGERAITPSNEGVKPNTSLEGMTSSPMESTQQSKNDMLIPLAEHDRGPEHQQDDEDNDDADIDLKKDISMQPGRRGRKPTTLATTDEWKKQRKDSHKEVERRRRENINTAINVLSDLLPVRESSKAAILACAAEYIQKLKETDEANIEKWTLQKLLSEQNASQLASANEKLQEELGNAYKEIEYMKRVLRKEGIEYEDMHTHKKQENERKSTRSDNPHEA
Method: protein-binding microarray
Molecule type: double-stranded DNA, one strand shown
Medium: in vitro
Tested at: 0.8 µM
Notes: whole 60-bp probe, no competitor
Reading: higher = stronger binding
Quantity: fluorescence intensity
Constant ends, left off below: … GTCTTGATTCGCTTGACGCTGCTG
CTAAGGGTCATTATTCACGATATGTTCAACTGTTTC: 540 a.u.
GAAGGTAAGACTAGTAACGTCACATCGAAGTCATAG: 520 a.u.
CTAGGATGGTGTTCACTCGTGCTAGCAAACGCGTTC: 563 a.u.
CTACACTTTGGGAATCACACCGCGAAACTGGCATTC: 581 a.u.
CTACGAATGAAAAGCACGTGAACTAACAAACTATTC: 5400 a.u.
GAAAAATGACATAGTCATCTGATATTTCTACTCTAG: 671 a.u.
TGTACGAAGCTATATCACGTGCGTATAGTAGTTAGG: 14200 a.u.
GAATATAACTAGAACATCAGAATTATGTATGCATAG: 519 a.u.
TGTACGAAGCTATATCACGTGGCTATAGTAGTTAGG: 10500 a.u.
CTACCAGCATGTAGGAAGGTGATGATATGCTCCTTC: 522 a.u.
CTATTAAGTTTTATAAACGTGTATATGAGATGTTTC: 553 a.u.
GAAGACTCCTACATACACGGGACCTGCAAGGTGTAG: 1060 a.u.
CTATCAGGCACACGTGATTCACCTAAACTCGGCTTC: 10200 a.u.
CTATCCACCTGCGAACACGTGGAAGTCGCAATTTTC: 3070 a.u.
TGTACGAAGCTATGCCACGTAAATATAGTAGTTAGG: 541 a.u.
CTATAATAAATACATGATGCTAGGTACACAGAATTC: 537 a.u.
CTAGTGAGGTTTTATCACGGGGCCACCGTTCTCTTC: 1380 a.u.
GAATCTTGAACGCTGCTGACCACGGTTTCACTGTAG: 560 a.u.
GAATAATATTGGCATGATGCGAAATTGGACGTATAG: 607 a.u.
GAACATTTACGCTTTCACGCAACTTTATTATATTAG: 572 a.u.
GAATCTCTTCTGAGTCACGAAATCAACAGTAATTAG: 644 a.u.
